Measured values from different studies.
Every numbered part comes from another study and shows a few of its results, in no order.

Sample 1 — method: RNA Bind-n-Seq; form: RNA; matrix: in vitro; tested at: 15 pmol; setting: 4-mer, random 30-nt RNA, single round; added: 3 µM RocA, 2 mM AMP-PNP; reference: mean of 4-mers; reading: higher = stronger binding; endpoint: 4-mer enrichment Z-score
Target: Eukaryotic initiation factor 4A-I (EIF4A1, Homo sapiens, UniProt P60842, residues 1-406, full length assumed)
Chain of UniProt P60842 (whole entry, looked up): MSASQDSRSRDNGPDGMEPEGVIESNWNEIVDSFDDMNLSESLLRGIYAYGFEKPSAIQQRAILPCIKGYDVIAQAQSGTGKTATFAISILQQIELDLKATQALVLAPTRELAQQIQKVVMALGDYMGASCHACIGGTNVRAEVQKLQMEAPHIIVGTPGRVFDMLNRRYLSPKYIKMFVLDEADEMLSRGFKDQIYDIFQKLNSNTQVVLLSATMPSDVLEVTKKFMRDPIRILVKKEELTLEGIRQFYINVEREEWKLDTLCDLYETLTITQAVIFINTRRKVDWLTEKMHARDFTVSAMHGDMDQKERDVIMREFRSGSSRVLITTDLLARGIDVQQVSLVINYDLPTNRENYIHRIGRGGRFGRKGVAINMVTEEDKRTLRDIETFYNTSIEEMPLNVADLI
AACU: -0.416
ACAU: -1.15
UUAA: 0.492
AGCU: -0.326
GUUC: -0.794
GGAA: 1.74
GUGU: 1.7
UGGU: 0.958
UUCU: -0.684
CGAC: -0.648
CGGC: -0.15
AUUC: -1.04
UAGG: 0.886
UUUG: 0.673
UGGC: 0.145
CAUU: -1.3
AAGA: 1.85
GCUG: 0.138
UGUU: 0.544
UCUG: -0.278
AUGC: -0.122
AGCA: -0.145
UGGA: 1.33
ACGU: -0.428
GCUC: -1.04

Sample 2 — method: competition protein-binding microarray; form: double-stranded DNA, one strand shown; matrix: in vitro; tested at: 2 µM; added: Pho4 competitor, 0.05 µM; reading: higher = stronger binding; endpoint: fluorescence intensity; shared flanks, not repeated: … GTCTTGATTCGCTTGACGCTGCTG
Target: Centromere-binding protein 1, full length, His-tagged (CBF1, Saccharomyces cerevisiae, UniProt P17106, residues 1-351)
Chain of UniProt P17106 (whole entry, looked up): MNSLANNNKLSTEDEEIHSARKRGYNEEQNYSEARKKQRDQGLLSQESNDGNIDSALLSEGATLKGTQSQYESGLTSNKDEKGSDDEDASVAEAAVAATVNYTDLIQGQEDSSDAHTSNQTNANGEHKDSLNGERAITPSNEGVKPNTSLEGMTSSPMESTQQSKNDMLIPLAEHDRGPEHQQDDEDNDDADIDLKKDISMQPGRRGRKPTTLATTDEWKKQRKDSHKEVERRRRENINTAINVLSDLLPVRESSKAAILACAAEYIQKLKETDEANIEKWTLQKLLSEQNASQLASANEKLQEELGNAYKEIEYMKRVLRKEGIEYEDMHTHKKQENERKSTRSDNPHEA
Setting: whole 60-bp probe, lowest competitor level
TACCAGCACTTATAACAAATGATGACAGTAAGCGCA: 77.9 a.u.
TTACTTTAACCTTTAGTAAATTCAGCGTCTTGACCA: 67.2 a.u.
AAACAAATGGTAATCCACGTGAATAATTGAGACAAA: 844 a.u.
CGTTCACTCATCCATAATTGATAAATTTGCGAAATT: 93.6 a.u.
CGGGCTGCCCCGGGTCACGTGACTCGGACACCGCCC: 35200 a.u.
GTCTTGTCTCATTGTCACCTCACTTTCCCCACTTCA: 85.9 a.u.
GTCTTCGTCGTCGACACCGTGATGGGATTGTAGTTC: 87.8 a.u.
ATTTCGCCCAGAGCGCACATGATCGGGTAGATAACC: 350 a.u.
CGGGGTTAAGTTTGCTCGGTGGGTGGCTTGCAGCAG: 69.3 a.u.
TGCAATAAGAAAACACACGTTAAATTACACTCAGGG: 82.9 a.u.
AGGCCCAAATGCTTGCACAGGCACAAGCTCAGGCTC: 60.3 a.u.
GGAAGCATTTTCCATCACGTTATTCGGGGACACCCA: 481 a.u.
GTCTTGTCTCATTGCAATGTGGGTGTCCCCACTTCA: 113 a.u.
ACCCTCTTGGCCATTCGCGTGCGGATTGATTGCCGG: 55.7 a.u.
AATTTGGCGCCGAGTCACGATATACTTGTACAGTGA: 161 a.u.
GCTCTGTCATCGCTCAACGTGGAAGCTCCGACGGTG: 67 a.u.
GTCTTGTCTCATTGCCAGGTGGGTGTCCCCACTTCA: 76.7 a.u.
AACAATGGTCATAAACATGTGGTGAGCAATGTTTCA: 127 a.u.
ATGTTCCTCAAGGTGCTCGTGTCCACACCGAAAAAT: 95.3 a.u.
CTTCTGTAAATTTGAAGGGTGGGTGGACGCGCCCCG: 83.1 a.u.
CTTCTGTAAATTTGGGTCGTGGGTGGACGCGCCCCG: 61.6 a.u.

Sample 3 — method: RNA Bind-n-Seq; form: RNA; matrix: in vitro; tested at: 1 µM; setting: whole 134-nt RNA, ends assumed; added: 150 mM KCl; reference: input library; reading: higher = stronger binding; endpoint: log2 enrichment
Target: Ras GTPase-activating protein-binding protein 1, RRM domain (G3BP1, Homo sapiens, UniProt Q13283)
Chain of UniProt Q13283 (whole entry, looked up): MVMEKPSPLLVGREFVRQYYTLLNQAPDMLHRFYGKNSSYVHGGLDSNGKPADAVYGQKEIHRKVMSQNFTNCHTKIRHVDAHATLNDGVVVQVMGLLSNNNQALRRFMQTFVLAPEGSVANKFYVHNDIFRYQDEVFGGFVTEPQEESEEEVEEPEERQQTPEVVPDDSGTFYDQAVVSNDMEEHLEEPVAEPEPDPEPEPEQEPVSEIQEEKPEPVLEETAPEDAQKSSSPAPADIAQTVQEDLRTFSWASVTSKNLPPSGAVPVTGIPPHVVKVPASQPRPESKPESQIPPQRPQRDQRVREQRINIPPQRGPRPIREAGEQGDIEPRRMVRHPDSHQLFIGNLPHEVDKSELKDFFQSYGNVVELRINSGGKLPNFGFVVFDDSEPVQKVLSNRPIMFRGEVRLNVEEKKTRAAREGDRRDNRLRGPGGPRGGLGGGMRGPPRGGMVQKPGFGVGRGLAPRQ
Shared flanks, not repeated: GGGAGUUCUACAGUCCGACGAUC … UGGAAUUCUCGGGUGUCAAGG
UGGGAGGUGGAUUUUGUUUAUUUUUUUAGCUCAUUUCCAGGGGUGGGAAUUUUUUUUUAAUAUGUGUCAUGGAUAAAGUUGUUUUUGAAA: 1.81
GUCCUGUGCUACACAUCGUAUGUACCGAAUCGGGGCCCCCGGGCCCCCGGGGCCCCCGGAAAGUAUUAUGUUACGCCGUUCGGAUCUGCA: -0.873
AAGUCCUGUGCUACACAUCGUAUGUACCGAAUCGGUUUUUGGUUUGGUUUUUUUGGAAAGUAUUAUGUUACGCCGUUCGGAUCUGCACUU: -0.357
GUCCUGUGCUACACAUCGUAUGUACCGAAUCGGGGAAAAAGGAAAAAGGGGAAAAAGGGAAAGUAUUAUGUUACGCCGUUCGGAUCUGCA: -0.012
UGGGAGGUGGAUUUUGUUUAUUUUUUUAGCUCAUUUCCAGGGGUGGGAAUUUUUUUUUAAUAUGUGUCAUGAAUAAGGUUGUUUUUGAAA: 0.832
GUCCUGUGCUACACAUCGUAUGUACCGAAUCGGGCCCCCGGGGCCCCCGGGCCCCCGGAAAGUAUUAUGUUACGCCGUUCGGAUCUGCAC: -0.685
CCUGUGCUACACAUCGUAUGUACCGAAUCGGUUUUUUUGGGUUUUUUUGGGUUUUUUUGGAAAGUAUUAUGUUACGCCGUUCGGAUCUGC: -0.123
CCUCAAGUCCUGUGCUACACAUCGUAUGUACCGAAUCGGAGGGGAGGAGGGGAAAGUAUUAUGUUACGCCGUUCGGAUCUGCACUUCCAG: -0.165
GCAGGAAGUAAAAACAAAUGGAAAUGCUAAAGAUAGUGGCAGGGGUGGGGGUUGCUAAGGAAAGGGUGGGAUGGGAGUGGGUAAAGAGUU: 1.44
UCAAGUCCUGUGCUACACAUCGUAUGUACCGAAUCGGUUUUUGGAAAAAGGUGGAAAGUAUUAUGUUACGCCGUUCGGAUCUGCACUUCC: -0.198
UAACUUUAGAGGAGGCUCUGAUGGAUAUGGCAGUGGACGUGGAUUUGGGGAUGGCUAUAAUGGGUAUGGAGGAGGACCUGGAGGUGGCAA: -0.814
GUCCUGUGCUACACAUCGUAUGUACCGAAUCGGGGUUUUUUUGGGGAAAGGGGAGGGGAAAGUAUUAUGUUACGCCGUUCGGAUCUGCAC: 0.879
AAAAGACAACACGCACCCACACAGACACAGAGGGAAGGGGUUGGGAUGGGGACAGGGUGCACAGCAGGGCGGGGUAGGACCCCAGCCCCU: 0.0221
UAACUUUAGAGGAGGAUCUGAUGGAUAUGCCAGUGGACGUGGAUUUGGGGAUGGCUAUAAUGGGUAUGGAGGAGGACCUGGAGGUGGCAA: -0.785

Sample 4 — method: RNA Bind-n-Seq; form: RNA; matrix: in vitro; tested at: 365 nM; reference: no-protein control; reading: higher = stronger binding; endpoint: RBNS enrichment (R)
Target: RNA binding protein fox-1 homolog 2, RRM domain, GST-SBP tag (RBFOX2, Homo sapiens, UniProt O43251-10, residues 100-194)
Setting: natural RNA segment, single round, ends assumed
Shared flanks, not repeated: GGGAGUUCUACAGUCCGACGAUC … UGGAAUUCUCGGGUGCCAA
Construct (chain): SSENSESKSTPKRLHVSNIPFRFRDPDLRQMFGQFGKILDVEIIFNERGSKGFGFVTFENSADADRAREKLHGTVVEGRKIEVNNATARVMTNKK
CCCACCCUAAGCGAACGGUAAGAAGGCCUCUCUUAAGAAGGGGAGACAGAUGGUCCUUAACUACUCAAUGACAGAGGCAGUUACUGUGAGAGACUUCUAGGAAUCUUUUU: 0.448
CCUGAUGAUGGUGGCUGUAAUAUGUUGAGUUCAGUUUACUAAAGGUUUUACUAUUAUGGUUUGAAGUGGAGUCUCAUGACCUCUCAGAAUAAGGUGUCACCUCCCUGAAA: 0.555
UUCUUCUGGAAAUAGUUCAUCAAGUAUGUUUGUUGCUCAUUGUGAUACAUUAAAAACUGUAUCUGCAUAUUUACUCUGGGUCUUCUUUCUGAGUGGGCUUCUGCAGUGUU: 0.595
UGUAGCAGCGCAUCAGGCUUGAGAUGCCAGGGGUUUGAUACAGGCGUGGAAUCACUUUCCAGGCCAGAGCCCUAGAGGGGUGCUGGUCUCCCUGCUUUGCUGUAUGGUGA: 0.668
GAUGCACAGUCAGUUGAACUUAGUAGCAACGCUGGCUUUGUGUAAUAAAGGAAGCAUUUGUAACUUACCCUUUCUUUGUGUGGUUAUUUGUGUAUGAGUUGGACGUAAAG: 0.326
UGGAGACUGGCUGGCAUUCCUCCAGCACUCUGCAGACUUCUUCCUGGGCCCGAGGCUAUGGAGCCUUGGCUUUCACUUCUGUGACAAACACAUGCCAUUUCCCCAGCCUC: 0.346
UGUUAGGAUUCCCACACGAACACCAAGCUACUCAGCCAUAACAUAUGCAGAGGACUUGCUCAGACUCCUACAGGCUCCUGAUCACUGCAAGCCCCCAGUACCGGUCAGUU: 0.246
UUGAUCACUAAGCAAAGCUGCUAGUGGGAUUCUAUAUUUCGUGUCAUCUUUUUUAUUAUAAUUUAUUGCAAAUUUUUUUCUGAAUAAAUAUAUGUUGUGUGAAAAAGCAA: 0.524
GAGAUUGUCUUUCUGCCACAGAACAGCUGCAAACGUGUCAGGAGGUUAGCUGAGAAAGAAAUCGGGCUGCUGCGGAGCACAGAGUGACUUGGAACUCCAUUCCACCUGAC: 0.582
GAAUAAAUGGGGUUGGGCAUAUCAAACUAAAGAUGACAUCUUAAUUUUGCAUUGAACAUUAAUGUAGCGGAUAUAAUUUGAUGAUUAUACUUCAUUAGAUUUAAUUUCUA: 0.511
AAACCUGCUGCUCAUCUAACGUUGGUACAUAAUCUCAAAUCAAAAGUUAUCUGUGACUAUUAUAUAGGGAUCACAAAAGUGUCACAUAUUAGAAUGCUGACCUUUCAUAU: 0.811
UUAGGCCACUGUGCUUUGCGGUCCAUUAGUAAACUUGUGUUGCUAAGUGCUAAACAGAAUACUGCUAUUUUGAGAGAGUCAAGACUCUUUCUUAAGGGCCAAGAAAGCAA: 0.209

Sample 5 — method: protein binding microarray; form: double-stranded DNA, one strand shown; matrix: in vitro; tested at: not given; reference: not given; reading: higher = stronger binding; endpoint: E-score
Target: Histone acetyltransferase KAT6A, both winged helices, GST fusion (KAT6A, Homo sapiens, UniProt Q92794, residues 1-181)
Setting: 8-mer, flanks averaged, mean of 2 arrays, mostly near background
Construct (chain): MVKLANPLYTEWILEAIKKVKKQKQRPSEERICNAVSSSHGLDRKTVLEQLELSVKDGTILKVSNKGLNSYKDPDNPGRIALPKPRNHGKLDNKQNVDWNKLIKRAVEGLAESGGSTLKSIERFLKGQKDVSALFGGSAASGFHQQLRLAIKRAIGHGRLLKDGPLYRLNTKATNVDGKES
CGCCGCGA: 0.301
CGCAGCCC: 0.112
CCGTAGTA: 0.14
AGTCCAAA: -0.143
ACAGAGGC: -0.0947
AACGAATC: -0.0462
GAAGTCTC: -0.0984
ACATCAAC: 0.0327
TCATCACA: -0.162
GAAGCAAA: -0.0974
CTTAAGCC: 0.111
AAAGTGGT: -0.201
GGTTTTAC: 0.00906
AAATGGTC: -0.122
GCCCTTAA: -0.104
CTTAAGCA: 0.0355
CCTTCAGA: -0.058
CGGGCGAC: 0.241
GACTTTGA: -0.132
CCCTTGAA: -0.0184
CGATTCCA: -0.057
ATTTTGTC: -0.018
CATTGTCA: -0.149
GTTACATA: -0.0658
ATATACAT: -0.0667
